Published values pooled from the literature.
Each line is one published result; not all experiments were run side by side. ± gives the spread as reported.
Chain of UniProt P24462 (whole entry, looked up): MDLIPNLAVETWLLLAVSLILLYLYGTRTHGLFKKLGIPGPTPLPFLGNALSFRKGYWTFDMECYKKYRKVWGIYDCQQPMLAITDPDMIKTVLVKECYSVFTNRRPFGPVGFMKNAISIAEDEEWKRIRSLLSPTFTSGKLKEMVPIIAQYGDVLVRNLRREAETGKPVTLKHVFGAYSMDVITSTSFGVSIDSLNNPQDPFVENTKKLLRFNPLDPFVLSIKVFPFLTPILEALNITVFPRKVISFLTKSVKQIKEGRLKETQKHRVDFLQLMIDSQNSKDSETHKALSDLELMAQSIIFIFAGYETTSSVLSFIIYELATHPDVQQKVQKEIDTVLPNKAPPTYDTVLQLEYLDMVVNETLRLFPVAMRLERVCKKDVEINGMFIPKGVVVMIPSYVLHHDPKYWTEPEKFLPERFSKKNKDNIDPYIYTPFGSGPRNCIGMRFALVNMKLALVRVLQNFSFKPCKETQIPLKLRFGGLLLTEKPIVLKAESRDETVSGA
Chain of UniProt P00761 (whole entry, looked up): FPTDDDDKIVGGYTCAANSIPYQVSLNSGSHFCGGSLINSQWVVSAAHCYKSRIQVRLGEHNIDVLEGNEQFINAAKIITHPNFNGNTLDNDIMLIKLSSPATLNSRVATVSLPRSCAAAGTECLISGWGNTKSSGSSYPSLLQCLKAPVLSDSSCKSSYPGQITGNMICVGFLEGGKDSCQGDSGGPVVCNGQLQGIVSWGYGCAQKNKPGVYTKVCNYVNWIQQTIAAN

SMILES | tested on | test | system | conditions | scale | quantity | result
CC[C@H](C)[C@H](NC(=O)[C@H](CO)NC(=O)[C@H](Cc1ccc(O)cc1)NC(=O)[C@H](CC(=O)O)NC(=O)[C@H](CO)NC(=O)[C@@H](NC(=O)[C@H](Cc1ccccc1)NC(=O)[C@@H](NC(=O)CNC(=O)[C@H](CCC(=O)O)NC(=O)[C@H](C)NC(=O)[C@@H](N)Cc1ccc(O)cc1)[C@@H](C)O)[C@@H](C)CC)C(=O)N[C@@H](C)C(=O)N[C@@H](CCSC)C(=O)N[C@@H](CC(=O)O)C(=O)N[C@@H](CCCCN)C(=O)N[C@H](C(=O)N[C@@H](Cc1c[nH]cn1)C(=O)N[C@@H](CCC(N)=O)C(=O)N[C@@H](CCC(N)=O)C(=O)N[C@@H](CC(=O)O)C(=O)N[C@@H](Cc1ccccc1)C(=O)N[C@H](C(=O)N[C@@H](CC(N)=O)C(=O)N[C@@H](Cc1c[nH]c2ccccc12)C(=O)N[C@@H](CC(C)C)C(=O)N[C@@H](CC(C)C)C(=O)N[C@@H](C)C(=O)N[C@@H](CCC(N)=O)C(=O)N[C@@H](CCCCN)C(=O)NCC(=O)N[C@@H](CCCCN)C(=O)N[C@@H](CCCCN)C(=O)N[C@@H](CC(N)=O)C(=O)N[C@@H](CC(=O)O)C(=O)N[C@@H](Cc1c[nH]c2ccccc12)C(=O)N[C@@H](CCCCN)C(=O)N[C@@H](Cc1c[nH]cn1)C(=O)N[C@@H](CC(N)=O)C(=O)N[C@H](C(=O)N[C@H](C(=O)N[C@@H](CCC(N)=O)C(=O)O)[C@@H](C)O)[C@@H](C)CC)C(C)C)[C@@H](C)CC | Trypsin (Sus scrofa, UniProt P00761) | LC-MS, refers to: fragment 1-30 | – | 18 h, pH 8.0, 37 °C, together with: trypsin 2.5 mg/mL | – | fragment formed | 33%
NC(=O)c1ccc(I)c([N+](=O)[O-])c1 | OCI-Ly1 | – | – | 0.5 µM, 120 h | – | viability | 146%
COc1c(O)cc2c(c1O)C(=O)c1c(cc(C)c(O)c1OC)C2=O | HepaRG co-cultured with HK-2 | MTT | – | 33.33 µM, 24 h | relative to: untreated control | cell viability | 95.9 ± 12.1%
Cc1nc2c(Cl)cccn2c1NC(=O)c1ccc(-c2ccc(N(C)C)cc2)o1 | COS-7 | – | – | 10 µM, 24 h, 0.1% DMSO, unit not given | relative to: vehicle control | necrotic cells | 0.6 ± 0.31
Cc1cc(N)c2c(OCC(C)(C)C(=O)NC(C)C)cccc2n1 | Salmonella typhimurium | reverse mutation, plate incorporation | TA100 | 5000 µg/plate, with rat liver S9 | – | mean revertant colonies | 79 colonies/plate
CC(C)C[C@H](NC(=O)C[C@H](O)[C@H](CC(C)C)NC(=O)[C@H](Cc1c[nH]cn1)NC(=O)CNC(=O)[C@@H](NC(=O)[C@H](C)NC(=O)[C@H](Cc1c[nH]c2ccccc12)NC(=O)[C@H](CCC(N)=O)NC(=O)[C@@H](Cc1ccccc1)NC(=O)COCCOCCNC(=O)CCC(C(=O)O)N1CCN(CC(=O)O)CCN(CC(=O)O)CCN(CC(=O)O)CC1)C(C)C)C(N)=O (some centres unmarked) [lutetium-177 labelled] | – | – | BALB/c nu/nu mice, heart | intravenous, 750 pmol, 1 h, together with: PA 300 µg | – | tissue uptake | 0.19 ± 0.05 %ID/g
CCCc1cc(C)[nH]c(=O)c1CNC(=O)c1cc(-c2ccnc(N3CCN(C)CC3)c2)cc2c1cnn2C(C)C | OCI-Ly1 | – | – | 0.5 µM, 120 h | – | viability | 91.2%
CCc1cc(C(=O)NC)c2nccc(N3CCc4c(cc(Cn5ccnc5)cc4-c4cn(C)nc4C(F)(F)F)C3=O)c2c1 | – | refers to: UA | Sprague Dawley rat | oral, 100 mg/kg once daily, 7 days | relative to: vehicle | change in clinical chemistry or haematology parameter | -4.8%
CCC(=O)NS(=O)(=O)c1ccc(-c2c(-c3ccccc3)noc2C)cc1 | COS-7 | WST-8 | – | 50 µM, 24 h, 0.1% DMSO, unit not given | relative to: vehicle control | metabolic activity | 0.79 ± 0.18
CC[C@H](CO)N(CCN(N=O)[C@H](CC)CO)N=O | Salmonella typhimurium | – | TA1535, methanol | concentration not given, plate incorporation, no S9 | – | lowest mutagenic concentration | 5000 µg/plate
Cc1onc(-c2ccccc2)c1-c1ccc(S(N)(=O)=O)cc1 | COS-7 | WST-8 | – | 50 µM, 24 h, 0.1% DMSO, unit not given | relative to: vehicle control | metabolic activity | 0.98 ± 0.04
CN1CCN(c2cnc3c(cc(C(=O)NCc4ccc(Cl)cc4)c(=O)n3CC(=O)N3CC(C)(F)C3)n2)C1=O | human cytomegalovirus | – | MRC-5, AD169-GFP | – | relative to: CC50 over EC50 | selectivity ratio | > 177
O=C(O)c1cc(O)c2c(c1)C(=O)c1cccc(O[C@@H]3O[C@H](CO)[C@@H](O)[C@H](O)[C@H]3O)c1C2=O | HepaRG co-cultured with HK-2 | MTT | – | 66.67 µM, 24 h | relative to: untreated control | cell viability | 98.8 ± 9.42%
COc1cccc2c(Nc3ccc4[nH]c(C(=O)N/N=C/c5ccc(SC)cc5)cc4c3)cc(C)nc12 | COS-7 | – | – | 10 µM, 24 h, 0.1% DMSO, unit not given | relative to: vehicle control | necrotic cells | 4.66 ± 0.99
Cc1cnc(C(=O)N[C@H]2CCCCC/C=C\[C@@H]3C[C@@]3(C(=O)NS(=O)(=O)C3CC3)NC(=O)[C@@H]3C[C@@H](Oc4nc5ccccc5c5ccccc45)CN3C2=O)cn1 | Cytochrome P450 3A7 (CYP3A7, Homo sapiens, UniProt P24462) | enzyme activity, time-dependent inhibitor | recombinant enzyme | 0 min preincubation, with NADPH, together with: DHEA-S 5 µM | relative to: 30 min preincubation | IC50 fold shift | 2.11
COc1c(O)c(C)cc2c1C(=O)c1c(cc(O)c(O)c1O)C2=O | HepaRG co-cultured with HK-2 | MTT | – | 66.67 µM, 48 h | relative to: untreated control | cell viability | 75.1 ± 11.8%
CC1(F)CN(C(=O)Cn2c(=O)c(C(=O)NCc3ccc(Cl)cc3)cc3nc(N4CCN(CC(=O)O)C4=O)cnc32)C1 | human cytomegalovirus | GFP reporter | AD169-GFP | retest | relative to: CC50 over EC50 | selectivity index | > 31.4
Cn1cc(-c2ccc(-c3cncc(Cl)c3N3CCC4(CCNC4=O)CC3)cc2)cn1 | COLO 205 | gene expression, microarray, refers to: IRF7 mRNA | – | concentration not given, 6 h | relative to: untreated cells | log2 fold change | 1.55
Cc1cc(Nc2ccc(S(F)(F)(F)(F)F)cc2)n2nc(C(C)(F)F)nc2n1 | Plasmodium falciparum | 12-lead ECG | malaria patients | oral, 250 mg, increase above 30 ms | – | patients with QTcB increase | 11.1%
Cc1cc(O)c2c(c1)C(=O)c1cccc(O)c1C2=O | HepaRG co-cultured with HK-2 | MTT | – | 33.33 µM, 48 h | relative to: untreated control | cell viability | 87.1 ± 7.09%
CC(C)C[C@H](NC(=O)C[C@H](O)[C@H](CC(C)C)NC(=O)[C@H](Cc1c[nH]cn1)NC(=O)CNC(=O)[C@@H](NC(=O)[C@H](C)NC(=O)[C@H](Cc1c[nH]c2ccccc12)NC(=O)[C@H](CCC(N)=O)NC(=O)[C@@H](Cc1ccccc1)NC(=O)COCCOCCNC(=O)CCC(C(=O)O)N1CCN(CC(=O)O)CCN(CC(=O)O)CC1)C(C)C)C(N)=O (some centres unmarked) [lutetium-177 labelled] | – | – | female BALB/c nu/nu mice, pancreas | intravenous, 50 pmol, 24 h | – | tissue uptake | 0.1 ± 0.02 %ID/g
CC(C)n1c(/C=C/C(O)CC(O)CC(=O)O)c(-c2ccc(F)cc2)c2ccccc21 (centres unmarked) | COS-7 | – | – | 6 µM, 24 h, 0.1% DMSO, unit not given | relative to: vehicle control | apoptotic cells | 1.61 ± 0.25
CC(=O)c1c(C)cc2cc(O)cc(O[C@@H]3O[C@H](CO)[C@@H](O)[C@H](O)[C@H]3O)c2c1O | HepaRG co-cultured with HK-2 | MTT | – | 266.67 µM, 24 h | relative to: untreated control | cell viability | 88.3 ± 15.3%
